Measured values from different studies.
Medium: urine
Route: oral

Cl.O=C(NC1CCOCC1)c1csc([C@@H]2C[C@H]2NCC2CC2)c1 — fraction excreted in urine (human, fed; 30 mg single dose): 19.6%
CC(=O)N(C)[C@H]1CCN(C(=O)c2cnc3c(c2)C[C@](C)(c2ccc(F)cc2)N3)C1 — fraction excreted in urine (healthy male human; 30 mg once daily, 0-48 h steady state, geometric mean): 56.5%
NC[C@@]1(CC(=O)O)[C@@H]2CC[C@H]3C[C@@H]2[C@@H]1C3 — fraction excreted in urine (human, severe renal impairment; 20 mg single dose, 0-72 h): 58.9%
Cc1cc(-c2nccc3c2ccn3CC(=O)Nc2ccc(-c3cnccn3)cn2)ccn1 — fraction excreted in urine (human; 40 mg single dose, geometric mean): 2.17%
CC(C)n1c(C2CCNCC2)nc2c([N+](=O)[O-])c(Br)c(Br)cc21 — fraction excreted in urine (human; 125 mg, median, single dose): 0.01
COc1cc(C(=O)NC2CCN(C)CC2)c(F)cc1Nc1ncc(C(F)(F)F)c(Oc2cccc3c2C(=O)N(C)C3)n1 — fraction excreted in urine (healthy Taiwanese humans; 200 mg single dose, 0-24 h, geometric mean): 5.52%
CN[C@@H]1COc2c(S(=O)(=O)NC(=O)Nc3c4c(cc5c3CCC5)CCC4)cnn2C1 — fraction excreted in urine (human; 900 mg twice daily, 0-12 h, day 7): 0.123
C[C@@H](Oc1ccc(S(C)(=O)=O)cc1C(=O)N1C[C@@H]2C[C@]2(c2cc(C(F)(F)F)on2)C1)C(F)(F)F — fraction excreted in urine (elderly humans; 50 mg once daily, 0-24 h, single dose, geometric mean): 2.13%

Repeated from above:
CC(=O)N(C)[C@H]1CCN(C(=O)c2cnc3c(c2)C[C@](C)(c2ccc(F)cc2)N3)C1 — fraction excreted in urine (healthy male human; 30 mg once daily, 0-48 h steady state, geometric mean): 56.5%
